Measurements from different studies.
Each numbered part is a random draw from the data of one study; scales do not carry over between parts. Positions count from the first letter of the parent shown.

Series 1
Target: ABI1, truncated, D143A, DHFR fusion (Arabidopsis thaliana)
Method: DHFR PCA, deep sequencing
Medium: yeast
Setting: methotrexate growth selection, single substitutions
With: (+)-ABA 4.8 µM
Baseline: wild-type fitted maximum
Reading: higher = stronger binding
Starting sequence: PYL1, truncated, DHFR fusion (Arabidopsis thaliana); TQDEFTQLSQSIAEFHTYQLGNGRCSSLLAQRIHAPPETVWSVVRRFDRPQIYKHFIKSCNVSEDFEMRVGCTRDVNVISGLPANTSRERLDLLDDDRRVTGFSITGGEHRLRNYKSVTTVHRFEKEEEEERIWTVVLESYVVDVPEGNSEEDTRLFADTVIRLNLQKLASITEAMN; partner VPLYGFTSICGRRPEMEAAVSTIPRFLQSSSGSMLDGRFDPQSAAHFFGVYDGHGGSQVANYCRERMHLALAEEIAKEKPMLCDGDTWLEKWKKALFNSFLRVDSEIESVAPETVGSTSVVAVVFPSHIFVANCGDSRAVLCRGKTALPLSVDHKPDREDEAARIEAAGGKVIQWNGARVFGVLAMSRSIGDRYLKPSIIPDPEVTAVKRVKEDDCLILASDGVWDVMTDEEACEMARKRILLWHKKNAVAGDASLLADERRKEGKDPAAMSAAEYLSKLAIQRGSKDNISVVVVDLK
Variant	relative binding score
D97K	76.4%
G21E	79%
F66T	47.6%
G81S	23.5%
I33V	50.8%
S26R	25.6%
C72S	67.6%
E38D	70.9%
F103R	-8.64%
T120Q	-4.6%
A30C	63.3%
R123H	72.3%
S117C	-0.366%
S87I	30.2%
S11H	63.4%
H122Q	10.2%
Y53P	-6.19%
D65E	69.4%
E109W	-7.22%
E130G	74.6%

Series 2
Target: Ras GTPase-activating protein-binding protein 1, full length (G3BP1, Homo sapiens, UniProt Q13283)
Chain of UniProt Q13283 (whole entry, looked up): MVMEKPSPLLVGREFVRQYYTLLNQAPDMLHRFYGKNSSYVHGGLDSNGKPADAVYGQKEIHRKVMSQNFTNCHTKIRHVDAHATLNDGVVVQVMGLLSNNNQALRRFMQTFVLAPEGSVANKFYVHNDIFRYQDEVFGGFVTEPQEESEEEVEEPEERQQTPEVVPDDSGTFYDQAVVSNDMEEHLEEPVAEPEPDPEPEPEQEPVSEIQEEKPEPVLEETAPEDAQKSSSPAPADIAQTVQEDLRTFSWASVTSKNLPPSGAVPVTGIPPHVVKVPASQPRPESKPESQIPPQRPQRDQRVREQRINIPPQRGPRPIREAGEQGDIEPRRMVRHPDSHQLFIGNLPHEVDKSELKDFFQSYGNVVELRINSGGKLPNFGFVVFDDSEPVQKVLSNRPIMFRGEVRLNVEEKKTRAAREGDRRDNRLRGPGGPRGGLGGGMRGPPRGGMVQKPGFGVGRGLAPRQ
Method: RNA Bind-n-Seq
Form: RNA
Medium: in vitro
Concentration: 200 nM
Setting: whole 134-nt RNA, ends assumed
With: 150 mM KCl
Baseline: input library
Reading: higher = stronger binding
All sequences stand within: GGGAGUUCUACAGUCCGACGAUC … UGGAAUUCUCGGGUGUCAAGG
Strand	log2 enrichment
UGCCGAUUCGGAAGUCCUUGAGGAGCGUCAGAAGCGGCUUCCCUACGUCCCAGAGCCCUAUUACCCGGAAUCUGGAUGGGACCGCCUCCG	-0.493
GUCCUGUGCUACACAUCGUAUGUACCGAAUCGGUUUUUGGGUUUUUGGGUUUUUGGGGAAAGUAUUAUGUUACGCCGUUCGGAUCUGCAC	-0.587
CACAGACAACACGCACCCACACAGACACAGAGGGAAGGGGUUGGGAUGGGGACAGGGUGCACAGCAGGGCGGGGUAGGACCCCAAACCCU	1.97
CCUCAAGUCCUGUGCUACACAUCGUAUGUACCGAAUCGGGGUGGUGGUGGGGAAAGUAUUAUGUUACGCCGUUCGGAUCUGCACUUCCAG	0.842
GUCCUGUGCUACACAUCGUAUGUACCGAAUCGGGGUGGGGAAAGGGGAAAAAAAGGGGAAAGUAUUAUGUUACGCCGUUCGGAUCUGCAC	0.437
GUCCUGUGCUACACAUCGUAUGUACCGAAUCAAAUUUUUAAAUUUAAAUUUUUUUAAAAAAGUAUUAUGUUACGCCGUUCGGAUCUGCAC	-1.47
CAAGUCCUGUGCUACACAUCGUAUGUACCGAAUCGGUGGAAAAAAAGGUUUUUGGAAAGUAUUAUGUUACGCCGUUCGGAUCUGCACUUC	-1.05
UCUCCCCAGGAGCACAGAAAAUGGUUCUGCCCCCUCCACAGCUCCCACAGACCAGAGCCGGCCACCGUUGGAGGUGAGUCGCCCGCCCCU	1.06
UUCAGUAAAAUGGCAGAAGAGAAACUGACCCACAAAAUGGAAGCUAAUAAAGAGAACCGAGAGGCACAAAUGGCUGCCAAACUGGAACGU	-1.02

Series 3
Target: CCNF, cyclin fold, Cln2 fusion (human)
Method: yeast growth competition, sequencing
Medium: yeast
Setting: strong parent motif
Baseline: not given
Reading: higher = stronger binding
Starting sequence: E2F1 docking peptide (human); PPVKRRLDFETDH
Variant	normalised enrichment score
T11C	7.3
R6P	4.41
F9D	-0.0444
L7N	0.182
R6T	6.8
P2Q	7.84
T11L	7.26
D12T	7.42
R5T	1.78
R5K	6.97
K4Q	7.22
P2L	7.87
K4C	6.65
K4W	7.2
F9C	2.08
R6S	7.1
T11P	7.66
R5C	2.98
D12R	7.85
E10Y	8.19
R6K	6.81
F9K	-0.0419
D8Q	7.46
R6E	5.73
K4V	7.04

Series 4
Target: Prothrombin, mature alpha-thrombin (F2, Homo sapiens, UniProt P00734)
Method: aptamer microarray, sandwich
Form: DNA with 2'F-ANA
Medium: in vitro
Concentration: 200 nM
Setting: whole 15-mer aptamer, many near background
With: Cy3 exosite-II aptamer, 400 nM
Reading: higher = stronger binding
Strand: GGTTGGTGTGGTTGG
Modification	mean fluorescence intensity
2'F-ANA at 1 3 7 10 12 13	113 a.u.
2'F-ANA at 2 4 5 10 12 14	44.9 a.u.
2'F-ANA at 1 2 3 5 8 11 12 13 15	94.6 a.u.
2'F-ANA at 1 2 3 5 7 10 13 15	54.3 a.u.
2'F-ANA at 9 10 11 13 14	105 a.u.
2'F-ANA at 1 4 5 12 13 15	75.1 a.u.
2'F-ANA at 2 5 6 10 13 14	100 a.u.
2'F-ANA at 2 3 4 5 7 8 13 14 15	114 a.u.
2'F-ANA at 3 5 9 12 14	68.5 a.u.
2'F-ANA at 5 8 9 13 14 15	48.2 a.u.
2'F-ANA at 1 3 6 7 9 10 12	102 a.u.
2'F-ANA at 1 2 5 6 8 10 11 14	61 a.u.
2'F-ANA at 7 8 10 13 14	170 a.u.
2'F-ANA at 1 2 7 9 10 12 13 14 15	48.7 a.u.
2'F-ANA at 6 7 8 10 11 13 14 15	140 a.u.
2'F-ANA at 2 4 6 8 11 15	234 a.u.
2'F-ANA at 3 4 6 7 9 13 14	220 a.u.
2'F-ANA at 2 3 9 12 13 14 15	362 a.u.
2'F-ANA at 1 3 4 5 8 12 14 15	48.5 a.u.
2'F-ANA at 3 4 7 8 9 11 12 13	784 a.u.
2'F-ANA at 2 3 4 5 6 7 8 12 14	169 a.u.
2'F-ANA at 4 6 11 12 14	106 a.u.
2'F-ANA at 4 6 7 8 9 12 13 14 15	93.6 a.u.

Excerpt of the above (series 3):
Variant	normalised enrichment score
P2L	7.87
K4V	7.04
F9D	-0.0444
K4W	7.2
D12T	7.42
T11P	7.66
K4C	6.65
R6S	7.1
P2Q	7.84
R5K	6.97
D8Q	7.46
R5C	2.98
